Results of several laboratories.
Numbered parts are unrelated; each lists some results of a single study. Substitutions count along the parent as printed.

Block 1
Target: CCNB2, cyclin fold, Cln2 fusion (human)
Method: yeast growth competition, sequencing
Matrix: yeast
Setting: strong parent motif
Baseline: not given
Reading: higher = stronger binding
Endpoint: normalised enrichment score
Starting sequence: PKMYT1 docking peptide (human); SFEPRNLLSLFED
VFEPRNLLSLFED [S1V]: 1.97
SFEPRNLLSTFED [L10T]: 0.747
SFEPRLLLSLFED [N6L]: -0.458
SFEPRALLSLFED [N6A]: 0.0413
SFEPRILLSLFED [N6I]: -0.157

Block 2
Target: Ras GTPase-activating protein-binding protein 1, full length (G3BP1, Homo sapiens, UniProt Q13283)
Chain of UniProt Q13283 (whole entry, looked up): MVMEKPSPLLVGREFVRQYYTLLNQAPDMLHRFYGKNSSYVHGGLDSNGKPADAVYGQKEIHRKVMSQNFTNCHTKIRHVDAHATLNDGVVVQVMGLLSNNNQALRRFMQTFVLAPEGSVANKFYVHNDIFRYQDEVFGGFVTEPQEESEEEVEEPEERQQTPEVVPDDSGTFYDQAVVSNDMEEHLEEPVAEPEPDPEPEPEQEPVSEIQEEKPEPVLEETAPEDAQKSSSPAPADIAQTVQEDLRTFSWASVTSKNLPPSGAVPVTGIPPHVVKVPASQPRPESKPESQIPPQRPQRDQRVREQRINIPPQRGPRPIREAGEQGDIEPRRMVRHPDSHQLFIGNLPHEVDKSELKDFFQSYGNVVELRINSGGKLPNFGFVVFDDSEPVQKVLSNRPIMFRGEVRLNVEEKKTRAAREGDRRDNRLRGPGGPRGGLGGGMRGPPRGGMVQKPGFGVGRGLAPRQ
Method: RNA Bind-n-Seq
Molecule type: RNA
Matrix: in vitro
Concentration: 200 nM
Setting: whole 134-nt RNA, ends assumed
With: 150 mM LiCl
Baseline: input library
Reading: higher = stronger binding
Endpoint: log2 enrichment
All molecules: 7-deaza-guanosine replaces G
Shared flanks, not repeated: GGGAGUUCUACAGUCCGACGAUC … UGGAAUUCUCGGGUGUCAAGG
AGUCCUGUGCUACACAUCGUAUGUACCGAAUCGGGUUUUUUUGGGAGGGAAAAAGGGAAAGUAUUAUGUUACGCCGUUCGGAUCUGCACU: -0.498
UCCUCAAGUCCUGUGCUACACAUCGUAUGUACCGAAUCGGUGGUUUGGAGGAAAGUAUUAUGUUACGCCGUUCGGAUCUGCACUUCCAGC: -0.0212
UCAAGUCCUGUGCUACACAUCGUAUGUACCGAAUCGGCCCGGCCCGGGGCCCGGAAAGUAUUAUGUUACGCCGUUCGGAUCUGCACUUCC: -0.538
UCAAGUCCUGUGCUACACAUCGUAUGUACCGAAUCGGGGAAAGGAAAGGAAAGGGAAAGUAUUAUGUUACGCCGUUCGGAUCUGCACUUC: -0.196
CUUUGGUUGACAGGAAGUUCCUUUUCCAGGCAGGUCCCGUUGCCACCUCCUGCUCACUCAGUCCCGGGCUCUGCCGAGUGGUCCUGGGAA: 0.311
AGUCCUGUGCUACACAUCGUAUGUACCGAAUCAAAUUUUUUUAAACCCAAAUUUAAAAAAGUAUUAUGUUACGCCGUUCGGAUCUGCACU: -2.48

Block 3
Target: ABI1, truncated, D143A, DHFR fusion (Arabidopsis thaliana)
Method: DHFR PCA, deep sequencing
Matrix: yeast
Setting: methotrexate growth selection, single substitutions
With: (+)-ABA 2500 µM
Baseline: wild-type fitted maximum
Reading: higher = stronger binding
Endpoint: relative binding score
Starting sequence: PYL1, truncated, DHFR fusion (Arabidopsis thaliana); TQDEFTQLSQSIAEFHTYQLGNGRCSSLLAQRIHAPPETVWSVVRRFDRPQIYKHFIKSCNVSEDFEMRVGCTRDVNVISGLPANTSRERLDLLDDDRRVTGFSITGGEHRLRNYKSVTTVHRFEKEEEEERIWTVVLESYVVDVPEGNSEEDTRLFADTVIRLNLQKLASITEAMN; partner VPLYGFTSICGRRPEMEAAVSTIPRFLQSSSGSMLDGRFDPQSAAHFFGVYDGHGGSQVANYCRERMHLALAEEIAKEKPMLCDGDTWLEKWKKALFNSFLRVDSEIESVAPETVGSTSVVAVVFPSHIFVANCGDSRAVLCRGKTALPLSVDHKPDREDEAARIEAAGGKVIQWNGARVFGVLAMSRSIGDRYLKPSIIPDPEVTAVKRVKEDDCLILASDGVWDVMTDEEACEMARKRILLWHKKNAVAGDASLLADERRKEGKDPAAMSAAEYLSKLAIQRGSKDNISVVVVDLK
S26H: 103%
Q167N: 94.1%
D75Y: 96.3%
T73R: 93.3%
G23E: 94.9%
I52K: 95.2%
L166I: 77.2%

Other studies, line by line
PhoQ, residues 284 288 289 292 302 303 QWGLFV  fold induction (PhoP, residues 12 14 15 18 19 SQCLL (Escherichia coli, UniProt P23836); Sort-seq, refers to: YFP reporter; E. coli; PhoQ-PhoP variant library, with: 10 µM Mg2+; baseline: high Mg2+ state, higher = stronger signaling): 10.9

For quick reference, copied from above (block 2):
UCCUCAAGUCCUGUGCUACACAUCGUAUGUACCGAAUCGGUGGUUUGGAGGAAAGUAUUAUGUUACGCCGUUCGGAUCUGCACUUCCAGC: -0.0212
AGUCCUGUGCUACACAUCGUAUGUACCGAAUCAAAUUUUUUUAAACCCAAAUUUAAAAAAGUAUUAUGUUACGCCGUUCGGAUCUGCACU: -2.48
